{"data": "Assay results gathered from unrelated publications", "note": "Every numbered part comes from another study and shows a few of its results, in no order. Substitutions count along the parent as printed."}
{"data": "Sample 1", "target": "CCND2, cyclin fold, Cln2 fusion (human)", "technique": "yeast growth competition, sequencing", "matrix": "yeast", "notes": "weak parent motif", "relative to": "not given", "reading": "higher = stronger binding", "parent": "RBL2 docking peptide (human); STTRRRLFVENDS; partner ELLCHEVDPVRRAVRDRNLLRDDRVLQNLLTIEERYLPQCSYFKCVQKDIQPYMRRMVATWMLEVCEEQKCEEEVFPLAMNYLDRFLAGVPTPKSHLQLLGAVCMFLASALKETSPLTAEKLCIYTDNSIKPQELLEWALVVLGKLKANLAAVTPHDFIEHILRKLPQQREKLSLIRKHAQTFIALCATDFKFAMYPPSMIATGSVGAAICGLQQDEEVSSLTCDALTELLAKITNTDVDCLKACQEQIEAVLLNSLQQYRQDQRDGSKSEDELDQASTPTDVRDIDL"}
{"Substitution": "S1A", "normalised enrichment score": -0.105}
{"Substitution": "T2V", "normalised enrichment score": 0.402}
{"Substitution": "F8Y", "normalised enrichment score": 0.0506}
{"Substitution": "N11E", "normalised enrichment score": -0.34}
{"Substitution": "F8C", "normalised enrichment score": 0.214}
{"Substitution": "T2S", "normalised enrichment score": 0.238}
{"Substitution": "T2G", "normalised enrichment score": 0.65}
{"Substitution": "R6L", "normalised enrichment score": 0.765}
{"Substitution": "D12Q", "normalised enrichment score": 0.0942}
{"Substitution": "R5L", "normalised enrichment score": 0.113}
{"Substitution": "F8D", "normalised enrichment score": 0.215}
{"Substitution": "N11F", "normalised enrichment score": 0.401}
{"data": "Sample 2", "target": "ABI1, truncated, D143A, DHFR fusion (Arabidopsis thaliana)", "technique": "DHFR PCA, deep sequencing", "matrix": "yeast", "notes": "methotrexate growth selection, single substitutions", "together with": "(+)-ABA 0.39 µM", "relative to": "wild-type fitted maximum", "reading": "higher = stronger binding", "parent": "PYL1, truncated, DHFR fusion (Arabidopsis thaliana); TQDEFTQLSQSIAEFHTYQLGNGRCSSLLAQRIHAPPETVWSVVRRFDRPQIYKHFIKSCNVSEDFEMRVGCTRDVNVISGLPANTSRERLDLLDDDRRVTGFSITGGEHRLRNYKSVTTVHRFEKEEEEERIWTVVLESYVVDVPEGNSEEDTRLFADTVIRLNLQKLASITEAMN"}
{"Substitution": "A84P", "relative binding score": "17.2%"}
{"Substitution": "Y53L", "relative binding score": "-3.25%"}
{"Substitution": "E139Y", "relative binding score": "12.2%"}
{"Substitution": "P36S", "relative binding score": "38.7%"}
{"Substitution": "T86E", "relative binding score": "5.8%"}
{"Substitution": "P36F", "relative binding score": "2.45%"}
{"Substitution": "D159G", "relative binding score": "5.04%"}
{"Substitution": "Q2W", "relative binding score": "55%"}
{"Substitution": "V118C", "relative binding score": "25.7%"}
{"Substitution": "P83N", "relative binding score": "0.0878%"}
{"data": "Sample 3", "target": "Interferon regulatory factor 5, full length, phosphomimetic (IRF5, Homo sapiens, UniProt Q13568-2, residues 1-514, K96S/S451D/S453D/S456D/S462D)", "technique": "protein-binding microarray", "molecule type": "double-stranded DNA, one strand shown", "matrix": "in vitro", "concentration": "250 nM", "notes": "60-bp whole probe", "together with": "salmon DNA 0.4 mg/ml", "relative to": "random background probes", "reading": "higher = stronger binding", "all sequences stand within": "GCCTAGCAC … GTCTTGATTCGCTTGACGCTGCTG"}
{"Oligonucleotide": "TCATATATAATATATATTACTGTGCTA", "log fluorescence [z-score]": 0.99}
{"Oligonucleotide": "AACGATTTCAGTTTCGAGACGTGCTAG", "log fluorescence [z-score]": 7.15}
{"Oligonucleotide": "TTGCCAATGCTTCTGGTCTTGTGCTAG", "log fluorescence [z-score]": -0.0287}
{"Oligonucleotide": "GACGGTCTCCTTCTCCTTACGTGCTAG", "log fluorescence [z-score]": -0.205}
{"Oligonucleotide": "TCATTTTTGGTAATAGTACTGTGCTAG", "log fluorescence [z-score]": 1.88}
{"Oligonucleotide": "GACGGACTGTTTTTCCTGACGTGCTAG", "log fluorescence [z-score]": -0.0805}
{"Oligonucleotide": "TTGAGTTTTCCTTCATGTGCGTGCTAG", "log fluorescence [z-score]": 0.714}
{"Oligonucleotide": "TTAAGAATGTTTTTCATTGTGTGCTAG", "log fluorescence [z-score]": 1.15}
{"Oligonucleotide": "TTAGATATCACTTTCGATTAGTGCTAG", "log fluorescence [z-score]": 11}
{"data": "Other studies, line by line"}
{"Molecule": "PhoQ, residues 284 288 289 292 302 303 QWQEDG", "target": "PhoP, residues 12 14 15 18 19 QQAYL (Escherichia coli, UniProt P23836)", "test": "Sort-seq, item: YFP reporter", "test system": "E. coli", "conditions": "PhoQ-PhoP variant library, together with: 10 µM Mg2+", "how to read": "relative to: high Mg2+ state, higher = stronger signaling", "measurement": "fold induction", "result": 18.3}
